Assay results of several laboratories.
Lines come from different studies, so protocols differ. “And” joins repeats or separate records; there may be more than shown. pIC50: −log10 of the molar value.

SMILES = COc1ccc(CNC[C@@](O)(COCc2ccc(F)cc2)[C@@H]2CC[C@@H](C)C[C@H]2OCc2ccc(F)cc2)cc1; target or system = A2780; test = cell growth or viability, MTT; conditions = 10 µM, 72 h; quantity = inhibition; result = 95.1%
SMILES = CCC(=CCc1c(O)cc2c(c1O)C(=O)CC(c1c(O)cccc1OC)O2)CC (stereo not drawn); target or system = HeLa; test = cell growth or viability, MTT; conditions = 100 µM, 48 h; quantity = inhibition; result = 44.1%
SMILES = C[C@@H]1CC[C@@H]([C@](O)(COCc2ccccc2)Cn2cnc3ccccc32)[C@H](OCc2ccccc2)C1; target or system = A2780; test = cell growth or viability, MTT; conditions = 10 µM, 72 h; quantity = inhibition; result = 98.3%
SMILES = CCC(=CCc1c(O)cc2c(c1O)C(=O)CC(c1cc(OC)ccc1O)O2)CC (stereo not drawn); target or system = HeLa; test = cell growth or viability, MTT; conditions = 1.563 µM, 48 h; quantity = inhibition; result = 2.14%
SMILES = COc1cc(C(=O)N2CC[C@@H](O)[C@@H](N)C2)cc2nc(-c3cc4cccnc4n3CC3CC3)n(C)c12; target or system = human neutrophils; test = protein citrullination, inhibitor, flow cytometry, measured: citrullinated histone H3; conditions = 316 pM, added: ionomycin; quantity = inhibition; result = 4.58% and 17.5% and 6.52% and 11.1%
SMILES = CC12CCCC(NS(=O)(=O)c3cccs3)(C1)C1CC(C)(C)C1CC2 (stereo not drawn); target or system = HT-29; test = cell growth or viability, CCK-8; conditions = 50 µM; quantity = inhibition; result = 96.1%
SMILES = CCC(=CCc1c(O)cc2c(c1O)C(=O)CC(c1cccc(O)c1OC)O2)CC (stereo not drawn); target or system = HeLa; test = cell growth or viability, MTT; conditions = 1.563 µM, 48 h; quantity = inhibition; result = 0.07%
SMILES = Cc1ncsc1-c1ccc(C(C)NC(=O)C2CC(O)CN2C(=O)C(NC(=O)CCCCCCCCCCN2CCCC(Nc3ncc(Cl)c(Nc4ccccc4S(=O)(=O)C(C)C)n3)C2)C(C)(C)C)cc1 (stereo not drawn); target or system = 22Rv1; test = RNA-seq, measured: NKX3-1; conditions = concentration not given; how to read = baseline: DMSO; quantity = log2 fold change; result = -1.55
SMILES = COc1ccc(COC[C@](O)(CNCc2ccccc2)[C@@H]2CC[C@@H](C)C[C@H]2OCc2ccc(OC)cc2)cc1; target or system = A2780; test = cell growth or viability, MTT; conditions = 30 µM, 72 h; quantity = inhibition; result = 101%
SMILES = COC1CN([C@H]2CC[C@H]([C@@]3(C)Oc4c(Cl)cc(C(=O)NCc5c(SC)cc(C)[nH]c5=O)c(C)c4O3)CC2)C1; test = RNA-seq, measured: CYSTM1; system = human, whole blood; conditions = dose not given, 24 h; how to read = baseline: pretreatment baseline; quantity = log2 fold change; result = 2.99
SMILES = CC12CCCC(NS(=O)(=O)c3ccc(N)cc3)(C1)C1CC(C)(C)C1CC2 (stereo not drawn); target or system = HT-29; test = cell growth or viability, CCK-8; conditions = 50 µM; quantity = inhibition; result = 98.1%
SMILES = Cc1nn(-c2cccc(N)c2)c(=O)c2cnc(Nc3ccc(N4CCNCC4)cc3)nc12; target or system = Epidermal growth factor receptor (EGFR, Homo sapiens, UniProt P00533, L861Q); test = SelectScreen kinase; quantity = pIC50; result = 5.54
SMILES = Nc1ncc(-c2cc(-c3cnn(CC(F)(F)F)c3)ncc2F)nc1C(=O)NC1CNCC(F)C1 (stereo not drawn); target or system = FYN; test = KINOMEscan; conditions = 1 µM; how to read = baseline: DMSO control; quantity = remaining binding; result = 100%
SMILES = CC12CCCC(n3cc(-c4ccccc4)nn3)(C1)C1CC(C)(C)C1CC2 (stereo not drawn); target or system = HT-29; test = cell growth or viability, CCK-8; conditions = 50 µM; quantity = inhibition; result = < 50%
SMILES = C=CC(=O)N1[C@@H](c2ccc3c(c2)OCO3)c2[nH]c3ccccc3c2C[C@H]1C(=O)N1CCN(C)CC1; target or system = human cyclin E1 N112C-3xFLAG:CDK2; test = co-IP with TMT proteomics, measured: PCMT1; conditions = concentration not given, P22061; how to read = baseline: wild type DMSO; quantity = relative co-enrichment; result = 131%

For quick reference, copied from above:
SMILES = CC12CCCC(NS(=O)(=O)c3cccs3)(C1)C1CC(C)(C)C1CC2 (stereo not drawn); target or system = HT-29; test = cell growth or viability, CCK-8; conditions = 50 µM; quantity = inhibition; result = 96.1%
SMILES = CCC(=CCc1c(O)cc2c(c1O)C(=O)CC(c1cccc(O)c1OC)O2)CC (stereo not drawn); target or system = HeLa; test = cell growth or viability, MTT; conditions = 1.563 µM, 48 h; quantity = inhibition; result = 0.07%
